Results from different studies.
Every numbered part comes from another study and shows a few of its results, in no order. Several values in a cell are separate wells, animals, samples, runs or records.

Block 1
Target: Tyrosine-protein kinase ZAP-70 (ZAP70, Homo sapiens, UniProt P43403)
Effect on: enzyme activity
Action: inhibitor
Tested at: 0.5 µM
Baseline: control
Target sequence (P43403 1-619): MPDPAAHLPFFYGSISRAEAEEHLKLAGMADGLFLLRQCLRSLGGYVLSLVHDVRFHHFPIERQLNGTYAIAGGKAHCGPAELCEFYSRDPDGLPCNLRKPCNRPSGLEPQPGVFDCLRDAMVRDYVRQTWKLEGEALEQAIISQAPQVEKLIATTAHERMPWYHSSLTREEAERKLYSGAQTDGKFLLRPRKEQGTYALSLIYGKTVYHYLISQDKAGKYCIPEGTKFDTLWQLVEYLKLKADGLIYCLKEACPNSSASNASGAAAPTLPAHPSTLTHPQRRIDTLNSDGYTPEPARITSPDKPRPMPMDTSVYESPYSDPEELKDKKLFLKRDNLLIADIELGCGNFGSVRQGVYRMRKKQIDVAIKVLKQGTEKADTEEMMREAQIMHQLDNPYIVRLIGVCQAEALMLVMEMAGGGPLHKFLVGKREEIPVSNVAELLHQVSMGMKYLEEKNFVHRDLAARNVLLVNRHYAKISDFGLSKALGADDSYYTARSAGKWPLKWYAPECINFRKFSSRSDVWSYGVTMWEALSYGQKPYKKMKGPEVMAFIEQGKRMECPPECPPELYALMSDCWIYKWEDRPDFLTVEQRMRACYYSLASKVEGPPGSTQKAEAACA
SMILES	remaining activity [%]
O=C1Cc2c([nH]c3ccc(Br)cc23)-c2ccccc2N1	93.6
CCCNC(=O)Nc1ccc(Oc2ncnc3cc(OC)c(OC)cc23)cc1Cl	102
O=C1Nc2ccc(Br)cc2/C1=C/c1cc2c([nH]1)CCCC2	93.9
CCCCc1c(-c2ccc(OC)cc2)[nH]c2nccnc12	74.2
COc1ccc2c(c1)c(C1=C(c3c[nH]c4ccccc34)C(=O)NC1=O)cn2CCCN(C)C	90.3
Cc1cc(Nc2cc(N3CCN(C)CC3)nc(Sc3ccc(NC(=O)C4CC4)cc3)n2)[nH]n1	106
CN(C)S(=O)(=O)c1ccc2c(c1)/C(=C/c1cc3c([nH]1)CCCC3)C(=O)N2	90
Oc1cccc(-c2nc(N3CCOCC3)c3oc4ncccc4c3n2)c1	91.4

Block 2
Target: 5-hydroxytryptamine receptor 6 (HTR6, Homo sapiens, UniProt P50406)
UniProt P50406, sequence (whole entry, looked up): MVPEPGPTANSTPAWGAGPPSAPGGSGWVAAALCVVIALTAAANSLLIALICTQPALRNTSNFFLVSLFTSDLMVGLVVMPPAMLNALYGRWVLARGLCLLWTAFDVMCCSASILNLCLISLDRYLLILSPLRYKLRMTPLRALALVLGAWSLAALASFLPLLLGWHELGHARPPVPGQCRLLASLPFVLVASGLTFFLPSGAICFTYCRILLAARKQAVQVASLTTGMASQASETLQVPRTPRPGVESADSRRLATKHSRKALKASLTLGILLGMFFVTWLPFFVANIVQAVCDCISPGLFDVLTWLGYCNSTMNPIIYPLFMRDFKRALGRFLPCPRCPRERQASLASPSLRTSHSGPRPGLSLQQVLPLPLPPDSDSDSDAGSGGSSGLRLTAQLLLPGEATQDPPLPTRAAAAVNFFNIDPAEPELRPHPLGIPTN
Effect on: ligand displacement
Tested at: 10 µM
SMILES	inhibition [%]
C[C@H](c1ccnc(Nc2nc3ccc(-c4cc(N(C)C)ncn4)cc3[nH]2)c1)N1CCN(C(=O)CC(F)(F)F)CC1	-4.38
Nc1nc(NCc2ccccc2)nc(-c2ccccc2CO)n1	19.4
c1ccc(N2CCN(Cc3nc4ccccc4[nH]3)CC2)nc1	2.35
CS(=O)(=O)N1CCCC(NC(=O)[C@H](CCC2CCCCC2)NC(=O)c2ccc(CNC(=O)c3cnc4ccccn34)cc2)C1 (some centres unmarked)	18.2
Cc1cc(Nc2nccc(C)n2)cc(-c2cnc([C@@]3(O)CC[C@H](C(=O)O)C(C)(C)C3)s2)c1	-12.2
CC(=O)Nc1ncc(CN2CCC[C@H](Cc3cc(C)nc(C)c3)C2)s1	14.3
CCC(=NO)C(C)=Cc1ccc(F)c(C)c1	-3.93
Nc1cnc(N2CCc3cc(S(=O)(=O)Nc4c(F)cc(Cl)cc4F)cc(N4CCCC4=O)c32)nc1	-26.7
O=C(NS(=O)(=O)c1ccc(NCC2CCOCC2)c([N+](=O)[O-])c1)c1ccc(N2CCN(Cc3ccc(C(F)(F)F)cc3-c3ccc(Cl)cc3)CC2)cc1Oc1cnc2[nH]ccc2c1	-14.8
Cn1cc(Cl)c2c(Oc3c(F)cc(Nc4cc(Cl)nc(N)n4)cc3F)ccnc21	-1.64
O=c1nc(-c2ccccn2)sc2ccccc12	-1.33

Block 3
SMILES: COc1ccc(-c2c(Nc3ccccn3)[nH]c3c(C4=CCCCC4)c(-c4ccccc4)nn3c2=O)cc1
Technique: LC-MS/MS
Species: human patients
Sample: plasma
dose	time	notes	plasma methionine concentration
200 mg BID	1 h	median	82100 ng/mL
dose not given	1 h	geometric mean, QD dosing	64400 ng/mL
200 mg BID	1 h	mean	67900 ng/mL
200 mg BID	6 h	mean	76200 ng/mL
50 mg QD	8 h	median	87000 ng/mL
200 mg BID	6 h	geometric mean	68900 ng/mL
dose not given	1 h	median, QD dosing	87200 ng/mL

Block 4
Cell line: mouse MPNST tumor cells
Technique: high-content nuclear imaging
Measured: cell number
Tested at: 10 µM
Time: 12 h
Notes: mean of 2 replicates
Baseline: plate mean
Direction: higher = more cells
Structure (SMILES)	nuclei count
CCOC(=O)/C=C(C)/C=C/C=C(C)/C=C/c1c(C)cc(OC)c(C)c1C	-1.93 z-score
CCOc1nc2cccc(C(=O)O)c2n1Cc1ccc(-c2ccccc2-c2nnn[nH]2)cc1	1.62 z-score and 0.493 z-score
Nc1ncnc2c1c(-c1cccc(OCc3ccccc3)c1)cn2C1CC(CN2CCCC2)C1 (centres unmarked)	0.762 z-score
Cc1ccc(-c2n[nH]c3c2C(c2cccc(O)c2)N(c2ccc(C(=O)O)cc2)C3=O)cc1 (centres unmarked)	-0.193 z-score
CCOc1ccc(Oc2ccc(OCc3cc(F)ccc3F)cc2)c(N)c1	-1.45 z-score
O=C(O)c1c[nH]c2cc(Cl)c(-c3ccc(C4(O)CCC4)cc3)cc12	-1.05 z-score

A few entries again (block 2):
SMILES	inhibition [%]
O=c1nc(-c2ccccn2)sc2ccccc12	-1.33
Cc1cc(Nc2nccc(C)n2)cc(-c2cnc([C@@]3(O)CC[C@H](C(=O)O)C(C)(C)C3)s2)c1	-12.2
Nc1nc(NCc2ccccc2)nc(-c2ccccc2CO)n1	19.4
C[C@H](c1ccnc(Nc2nc3ccc(-c4cc(N(C)C)ncn4)cc3[nH]2)c1)N1CCN(C(=O)CC(F)(F)F)CC1	-4.38
